Measured values of several laboratories.
Protocols differ between the studies behind these lines. ± gives the spread as reported.
Cell line: SH-SY5Y

`Cc1ccc(CCNc2c(NC3CCN(Cc4ccccc4)CC3)c(=O)c2=O)cc1` gave a viability of 107.8 ± 0.69% (MTT; 6.25 µM, 24 h).
`CC(C)C[C@H](NC(=O)[C@H](CCCCN)NC(=O)[C@H](CCC(N)=O)NC(=O)[C@@H](N)Cc1c[nH]cn1)C(=O)N[C@H](C(=O)NCCCC[C@@H]1NC(=O)[C@H](CC(=O)N[C@@H](Cc2ccccc2)C(=O)N[C@@H](Cc2ccccc2)C(=O)N[C@@H](C)C(=O)N[C@@H](CCC(=O)O)C(=O)N[C@@H](CC(=O)O)C(N)=O)NC1=O)C(C)C` has a viability of about 93% (10 µM, 24 h; relative to: PBS control).
`O=c1c(Nc2ccccc2)c(NC2CCN(Cc3ccccc3)CC2)c1=O` gave a viability of 117.1 ± 0.46% (MTT; 12.5 µM, 24 h).
With `Cc1nc(-c2ccc(Cl)cc2)nc2sc3c(=O)n(CCN4CCOCC4)cnc3c12` the viability was 94.8 ± 0.49% (50 µM, 24 h).
The viability of `O=C1CCCC2=C1C(c1c[nH]c3ccccc13)n1c(sc(=Cc3c[nH]c4ccccc34)c1=O)=N2` (stereo not drawn) is reported as 96.8% (cell growth or viability, MTT; 10 µM).
The viability of `COc1ccc([C@@H]2N=NC(NCCc3c[nH]c4ccc(C)cc34)=NC2=O)cc1` is reported as 97.1 ± 0.08% (100 µM, 24 h).
`O=c1c(NCCc2ccc(O)cc2)c(NC2CCN(Cc3ccccc3)CC2)c1=O` has a viability of 87.3 ± 1.99% (MTT; 12.5 µM, 24 h).
For `COCCN1COc2c(cc3c4c(c(=O)oc3c2C)CCC4)C1`, the viability was 88.7 ± 0.77% (100 µM, 24 h).
Under “reduction of cytotoxicity”, `CC[C@H](C)[C@@H]1NC(=O)CNC(=O)[C@H](CCSC)NC(=O)[C@H](C(C)C)NC(=O)[C@H]([C@@H](C)O)NC(=O)[C@@H]2CSSC[C@@H]3NC(=O)[C@H](Cc4c[nH]cn4)NC(=O)[C@@H](NC(=O)[C@@H](NC(=O)[C@H](Cc4ccccc4)NC(=O)[C@H](C)N)[C@@H](C)O)CSSC[C@@H](C(=O)N[C@@H](CC(C)C)C(=O)O)NC(=O)[C@H](CSSC[C@H](NC(=O)[C@H](CO)NC(=O)[C@H](CCCNC(=N)N)NC(=O)[C@H](CCCNC(=N)N)NC3=O)C(=O)N[C@@H](Cc3ccc(O)cc3)C(=O)N[C@@H](CO)C(=O)N[C@@H]([C@@H](C)O)C(=O)N[C@@H](CCC(=O)O)C(=O)N[C@@H](Cc3ccc(O)cc3)C(=O)N[C@@H](CO)C(=O)N[C@@H](Cc3ccc(O)cc3)C(=O)NCC(=O)N[C@@H]([C@@H](C)O)C(=O)N2)NC(=O)[C@H](Cc2ccccc2)NC(=O)[C@H](CCCNC(=N)N)NC(=O)[C@H](Cc2c[nH]cn2)NC(=O)[C@H](CC(N)=O)NC1=O` is recorded as 24% (LDH release; 0.1 µM, 24 h, together with: amyloid-beta 20 µM).
